Published values of several laboratories.
Numbered parts are unrelated; each lists some results of a single study.

Study 1
Target: Sal-like protein 4, full length isoform A (SALL4, Homo sapiens, UniProt Q9UJQ4, residues 1-1053)
Chain of UniProt Q9UJQ4 (whole entry, looked up): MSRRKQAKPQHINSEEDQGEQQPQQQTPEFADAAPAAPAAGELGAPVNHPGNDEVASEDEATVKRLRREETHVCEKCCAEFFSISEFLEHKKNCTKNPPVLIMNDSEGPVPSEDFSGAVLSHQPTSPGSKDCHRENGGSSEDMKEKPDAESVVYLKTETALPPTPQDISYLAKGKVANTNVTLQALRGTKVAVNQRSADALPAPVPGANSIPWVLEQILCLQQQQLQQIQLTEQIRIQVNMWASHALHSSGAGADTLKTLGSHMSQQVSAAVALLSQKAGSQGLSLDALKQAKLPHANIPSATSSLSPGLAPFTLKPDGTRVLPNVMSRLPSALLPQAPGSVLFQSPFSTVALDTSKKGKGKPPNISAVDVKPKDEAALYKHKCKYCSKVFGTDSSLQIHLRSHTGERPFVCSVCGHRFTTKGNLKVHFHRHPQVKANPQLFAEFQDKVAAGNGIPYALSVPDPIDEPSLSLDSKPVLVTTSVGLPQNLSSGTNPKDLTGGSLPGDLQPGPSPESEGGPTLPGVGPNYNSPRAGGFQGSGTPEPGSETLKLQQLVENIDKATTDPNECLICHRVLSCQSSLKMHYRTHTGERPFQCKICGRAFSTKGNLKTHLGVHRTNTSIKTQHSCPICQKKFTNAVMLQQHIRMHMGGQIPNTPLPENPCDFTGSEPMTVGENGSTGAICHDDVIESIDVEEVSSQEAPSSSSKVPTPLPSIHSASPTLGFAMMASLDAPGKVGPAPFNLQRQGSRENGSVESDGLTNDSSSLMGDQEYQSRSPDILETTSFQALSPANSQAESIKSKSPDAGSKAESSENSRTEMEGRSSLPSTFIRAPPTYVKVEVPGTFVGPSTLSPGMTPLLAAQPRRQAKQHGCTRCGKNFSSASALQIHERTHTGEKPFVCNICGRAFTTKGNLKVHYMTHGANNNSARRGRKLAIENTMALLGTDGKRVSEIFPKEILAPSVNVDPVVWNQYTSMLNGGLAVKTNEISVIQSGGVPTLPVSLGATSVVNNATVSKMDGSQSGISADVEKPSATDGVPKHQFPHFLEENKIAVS
Technique: universal PBM
Molecule type: double-stranded DNA, one strand shown
Sample: in vitro
Concentration: 600 nM
Notes: 8-mer, flanks averaged, mean of replicates
Reading: higher = stronger binding
Endpoint: E-score
Strand = GCGTCCAC; result = -0.303
Strand = GGCGCTGA; result = -0.223
Strand = ATACCCGC; result = -0.141
Strand = AGGGTCAC; result = -0.321
Strand = CTTGCACA; result = -0.0651
Strand = GTACTTCA; result = 0.178
Strand = GAGAAGAA; result = 0.1
Strand = CAGCTTGG; result = -0.151
Strand = CCTGTTGA; result = 0.0697

Study 2
Target: Phosphate system positive regulatory protein PHO4, full length, GST-tagged (PHO4, Saccharomyces cerevisiae, UniProt P07270, residues 1-312)
Technique: competition protein-binding microarray
Molecule type: double-stranded DNA, one strand shown
Sample: in vitro
Concentration: 2 µM
Notes: whole 60-bp probe, lowest competitor level
Together with: Cbf1 competitor, 0.05 µM
Reading: higher = stronger binding
Endpoint: fluorescence intensity
All sequences stand within: … GTCTTGATTCGCTTGACGCTGCTG
Target sequence (chain): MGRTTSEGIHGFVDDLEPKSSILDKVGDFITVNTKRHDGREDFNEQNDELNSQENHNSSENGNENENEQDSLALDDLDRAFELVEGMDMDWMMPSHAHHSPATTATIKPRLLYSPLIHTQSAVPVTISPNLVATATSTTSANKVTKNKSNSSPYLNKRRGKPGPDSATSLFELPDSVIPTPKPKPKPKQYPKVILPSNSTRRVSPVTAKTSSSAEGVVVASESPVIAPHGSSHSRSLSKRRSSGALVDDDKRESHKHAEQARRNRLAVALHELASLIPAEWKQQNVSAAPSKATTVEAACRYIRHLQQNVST
Strand = TTTTTGTTCGCTACCCACGTCTTGACCGACGGTACC; result = 6660 a.u.
Strand = AGCCATACACCAAAGCACGTCGACGAGGTTATATTT; result = 7250 a.u.
Strand = CCGAAAAGTGAAGATGATGTGATATTGGGCGAGAGC; result = 3000 a.u.
Strand = GTCTTGTCTCATTGAGATGTGGGTGTCCCCACTTCA; result = 4850 a.u.
Strand = TTTAACCTCTAGTAAGAAGGACCCGGCACTTATTGT; result = 3010 a.u.
Strand = AATAAGACGGACGGCCACGTGACGGAAGATTTTTTT; result = 17900 a.u.
Strand = TGCGCAACAACTTGAACCGTGGGTGTATGTCTAGAA; result = 6880 a.u.

Study 3
Target: Interferon regulatory factor 7, full length, phosphomimetic (IRF7, Homo sapiens, UniProt Q92985, residues 1-503, S471D/S472D/S475D/S476D/S477D/S483D/S484D/S487D)
Chain of UniProt Q92985 (whole entry, unmodified, looked up): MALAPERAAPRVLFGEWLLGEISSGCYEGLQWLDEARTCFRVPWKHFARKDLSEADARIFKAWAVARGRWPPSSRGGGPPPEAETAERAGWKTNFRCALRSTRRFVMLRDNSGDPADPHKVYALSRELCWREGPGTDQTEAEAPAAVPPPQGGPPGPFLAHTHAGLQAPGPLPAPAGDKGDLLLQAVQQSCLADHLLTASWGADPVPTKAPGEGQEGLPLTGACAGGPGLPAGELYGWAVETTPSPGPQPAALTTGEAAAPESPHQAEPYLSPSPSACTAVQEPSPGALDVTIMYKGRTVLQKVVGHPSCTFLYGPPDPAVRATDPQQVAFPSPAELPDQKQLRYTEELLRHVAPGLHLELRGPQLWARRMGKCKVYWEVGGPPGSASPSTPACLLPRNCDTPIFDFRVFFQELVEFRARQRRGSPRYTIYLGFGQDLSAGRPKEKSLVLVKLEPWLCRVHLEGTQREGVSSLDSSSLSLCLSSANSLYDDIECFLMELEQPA
Technique: protein-binding microarray
Molecule type: double-stranded DNA, one strand shown
Sample: in vitro
Concentration: 2200 nM top
Notes: 60-bp whole probe
Together with: salmon DNA 0.4 mg/ml
Reference: random background probes
Reading: higher = stronger binding
Endpoint: fitted relative affinity
All sequences stand within: GCCTAGCAC … GTCTTGATTCGCTTGACGCTGCTG
Strand = TTAGGTTTCGGGACTGGGTTAGTGCTA; result = 3.24 z-score
Strand = TCAAATTTCCACTTTGAACTGTGCTAG; result = 1.9 z-score
Strand = TTAGATATCGGGTATCGATTCGTGCTA; result = 0.698 z-score
Strand = GGCGGTTTCGGGACTGGGGACGTGCTA; result = 3.02 z-score
Strand = GACGGTTCCCTTTTTCTGACGTGCTAG; result = 2.29 z-score

Single results of other studies
Substance = PhoQ, residues 284 288 289 292 302 303 SSTLSG; target = PhoP, residues 12 14 15 18 19 NFCKL (Escherichia coli, UniProt P23836); assay = Sort-seq, refers to: YFP reporter; test system = E. coli; conditions = PhoQ-PhoP variant library, together with: 10 µM Mg2+; scale = reference: high Mg2+ state, higher = stronger signaling; endpoint = fold induction; result = 10.7

Excerpt of the above (study 3):
Strand = GGCGGTTTCGGGACTGGGGACGTGCTA; result = 3.02 z-score
Strand = TCAAATTTCCACTTTGAACTGTGCTAG; result = 1.9 z-score
Strand = TTAGGTTTCGGGACTGGGTTAGTGCTA; result = 3.24 z-score
